# Measurements of several laboratories.
# Each numbered part is a random draw from the data of one study; scales do not carry over between parts.

# Series 1
# Target: RING finger protein unkempt homolog, zinc fingers 1-6, SBP tag (UNK, Homo sapiens, UniProt Q9C0B0, residues 30-357)
# UniProt Q9C0B0, sequence (30-357, looked up): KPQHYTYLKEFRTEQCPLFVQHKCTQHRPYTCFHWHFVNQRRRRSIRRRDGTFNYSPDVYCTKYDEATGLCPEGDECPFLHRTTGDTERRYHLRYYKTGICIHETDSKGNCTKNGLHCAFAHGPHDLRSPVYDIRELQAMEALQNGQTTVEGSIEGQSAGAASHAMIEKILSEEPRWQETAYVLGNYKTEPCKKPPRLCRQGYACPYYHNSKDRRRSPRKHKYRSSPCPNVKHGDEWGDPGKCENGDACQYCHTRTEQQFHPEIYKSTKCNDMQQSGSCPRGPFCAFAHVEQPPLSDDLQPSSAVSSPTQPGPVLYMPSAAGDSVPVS
# Method: RNA Bind-n-Seq
# Molecule type: RNA
# Sample: in vitro
# Tested at: 100 nM
# Setting: RNA with constant flanks, vertebrate orthologous sites, ends assumed
# Baseline: input RNA pool
# Direction: higher = stronger binding
# All sequences stand within: GGGAGUUCUACAGUCCGACGAUC … CAACAGAGGAUUGAGCAUCA
Sequence,bound/input enrichment [ratio]
GCAUACUCCAUCACUGUGAUACUUAAAAUAUGCACAGUCCUAAUUCUUUCUAAAUGAUCCUAUUAUUUUUCUAGCUGUAUCUUUGUAUCUCAUACUGUUAUUUAUCAAUUUUGUUCCCCG,3.47
GUUUUUUAAUGCCCUCAACAGGCUGGUUUUUUUCAUGCUGCCUUCAAGUGCUUAUGGUAAGCUUGUUACUUUGGGCUCAGUUACUUUAGUAGAUUGGAUCAAGCAGUAGAGCUGUCCGUU,0.54
GACUGGAUGCCGUAUAUACCGUACCCAAGGCAGUGACUUCCACUUUCUACACGUUGUUAGUUUAAAGUCAUCUCUUAUUUCAGCGUCUAGACUGGAUUGUUAGUGCUACUACUCUUUGUA,0.554
GUUGCGAUCCCUUCAAUAUACACAGAAAACUAUCAAAGAAAAACUUGCGAGCAAUUGACUUGGAUGAUGCAACUUUUCUAAGUGCCAAGUUUGGAAGGCAGUUUGUACCUGGUUGGAAGC,0.322
CAAUUCCAUGGUGGAGGGUUCGGAACUCAAAAAGGUUCGCUCCAACUCUAGAAUUUACCACAGGUAUUUUUUACUGGACGCUGACAUGCAGAGCCUGAGGUGGGAGCCAUCCAAGAAGGA,0.221
AGUUUGUAUGUACAUUAUUCACAUUCCUCUCUGUUGUGUUUUGGGGGAAAAAAAGACAUUUUAGCCUUUUUUAAGGUUAUUGAUUUAAUUUCAUGUUAUUUGGUUGCAUGAAGUUGCCCU,0.393
CUGAAGCUUUGUGUUUGGCUGCACCUACAUAAACUGCUACAAAUAGAAUAAAGAAUCUCAUAGCCUGUAUCUAUCAUUUAGAUGCAUGGAAAAAUGGGCUUUGCACACAAUGGGUUUGGA,1.62
UGCAUUAUUUGACCAGAGUUGAAGUGACAGAGUUUGAAGACAUCAAAUCAGGUUACAGAAUAGAUUUUUAUUUUGACGAAAAUCCGUACUUUGAAAAUAAAGUUCUUUCCAAAGAGUUUC,0.287

# Series 2
# Target: Histone acetyltransferase KAT6A, winged helix 2, GST fusion (KAT6A, Homo sapiens, UniProt Q92794, residues 85-181)
# Method: protein binding microarray
# Molecule type: double-stranded DNA, one strand shown
# Sample: in vitro
# Tested at: not given
# Setting: 8-mer, flanks averaged, mean of 2 arrays, mostly near background
# Baseline: not given
# Direction: higher = stronger binding
# Construct (chain): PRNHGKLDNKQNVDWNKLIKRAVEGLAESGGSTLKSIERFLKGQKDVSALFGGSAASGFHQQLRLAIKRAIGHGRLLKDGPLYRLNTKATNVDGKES
Sequence,E-score
AGTTTCAA,-0.0127
ATTCAGAC,0.0367
CAGGAGTA,-0.0135
AGGCGGCA,0.14
AATTCTCT,-0.0229
GATAATCC,-0.0134
GGACGGAC,-0.101
GAAAGCTA,-0.0486
CCACGTTC,-0.17
CAGATCTA,-0.0698
GGCCGGCA,0.279
GCTGATAC,-0.0453
CATATGGA,-0.139
AACCATGA,0.0122
ATAGCTAC,-0.0461
AGCCACCC,0.031
TCTTCAAA,0.0851
GTACGAGA,-0.00394
GAAGGTAC,-0.0261

# Series 3
# Target: RNA binding protein fox-1 homolog 2, RRM domain, GST-SBP tag (RBFOX2, Homo sapiens, UniProt O43251-10, residues 100-194)
# Method: RNA Bind-n-Seq
# Molecule type: RNA
# Sample: in vitro
# Tested at: 365 nM
# Setting: natural RNA segment, single round, ends assumed
# Baseline: no-protein control
# Direction: higher = stronger binding
# All sequences stand within: GGGAGUUCUACAGUCCGACGAUC … UGGAAUUCUCGGGUGCCAA
# Construct (chain): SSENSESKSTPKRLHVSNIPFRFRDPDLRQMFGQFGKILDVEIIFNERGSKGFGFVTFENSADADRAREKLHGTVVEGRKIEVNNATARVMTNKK
Sequence,RBNS enrichment (R)
UGUAAAGUUAUGUAUUUAAAGUUGUAUCUUGACACAGGAAAUGGGAAAAAACUUAAAAAUUAAUAUGGUGUAUUUUUCCAAAUGAAAAAUCUCAAUUGAAAGCUUUUAAA,1.08
ACUGGCAAUUUUAUAGAGGGUUGGUUUAGUUCUUUGCUUUUUCAACAGGAAAUAACACUUCAGGAGGAACUGAAACUAGCUAAGCCUUCCUUUUUAGCAAGUAAACCUUG,0.28
CUAUGUGGCAUCAACCAGUGCCAUUACCUCCUGUGGCACCAUAGAGCCCAAUCUCAGGGCAGACAUUGCCAAGGUAAAGAAUGCACUCCAUGUUUAUACCAAAUUGCACA,0.85
GUAUAAAUGGAAUGUUGUGGAGAUGACCCCUCCCUGUGCCGGCUGGUUCCUCUCCCUUUUCCCCUGGUCACGGCUACUCAUGGAAGCAGGACCAGUAAGGGACCUUCGAU,0.623
CUUUGGAGAGUAUUUUAGAAACUCCAAUGAAAGACACUGUUUCUCCUGUUGGCUCACAGGGCUGAAAGGGGCUUUUGUCCUCCUGGGUCAGGGAGAACGCGGGGACCCCA,0.278
GCCAGAAUUAAAUUAUGUAUUAAACUCUUGUCUCCAUUUAACACCUUUGCAGUGAAAAACUUUUUGCUUCAUAUAGUUAAUUAUAUUCAUAUUGAAUGUAUUAACAGAUA,0.691
UUAAGUAGACUUUGGACCGUUAAGCUGGGCAAAGGAAAUGACAAGGGGACGGGGUCUGUGAGAGUCAAUUCAGGGGAAAGAUACAAGAUUGAUUUGUAAAACCCUUGAAA,1.1
UACAUAAAUGCAUUGACAAUUAUAAAAUGCAAGUGUUUUUUGAAUGAUUUUAAGAAUUUGGCUUAAAAAUUGAUUGAUACAACGUAUUAUUUGUACUAAGAAGUAACUUG,1.2

# Series 4
# Target: Interferon regulatory factor 5, full length, phosphomimetic (IRF5, Homo sapiens, UniProt Q13568-2, residues 1-514, K96S/S451D/S453D/S456D/S462D)
# Method: protein-binding microarray
# Molecule type: double-stranded DNA, one strand shown
# Sample: in vitro
# Tested at: 250 nM
# Setting: 60-bp whole probe
# Together with: salmon DNA 0.4 mg/ml
# Baseline: random background probes
# Direction: higher = stronger binding
# All sequences stand within: GCCTAGCAC … GTCTTGATTCGCTTGACGCTGCTG
Sequence,log fluorescence
ACCGTTGTAGTTTTCATTATGTGCTAG,1.82 z-score
GACGATGCCAGTTTCGAGACGTGCTAG,4.83 z-score
TCATCTTTACTTCACTCACTGTGCTAG,0.91 z-score
TACGAACTGGGGTTTCGAGACGTGCTA,0.997 z-score
TCAACCTTCGAGTCTGCAACTGTGCTA,0.633 z-score
TTAGGTTTCGGTTTCGGTAAGTGCTAG,12.2 z-score
TCAGATTGGTTGAACATACTGTGCTAG,-0.057 z-score
TTAGGTTCCGGTTTCGGTAAGTGCTAG,9.15 z-score
TTAGAACTAGGGACTGGATTAGTGCTA,-0.337 z-score
GACGGTTTCGGTCACGGGACGTGCTAG,9.55 z-score
TTAGGTTTCGGGTATCTGTTAGTGCTA,9.15 z-score
GACGGCTTCCTTCTCCTGACGTGCTAG,-0.333 z-score
TTAGGAATCCTTTTCCTTTAGTGCTAG,0.469 z-score
AAAGTTATCACTTCCAAAGTGTGCTAG,1.51 z-score
CCTTATTTAAGACCTATGCACGTGCTA,0.399 z-score
TTAGGCCTCCTTATCCTTTAGTGCTAG,-0.0537 z-score
GACGATCTCAGTCGCGAGACGTGCTAG,-0.139 z-score

# Repeated from above (series 2):
Sequence,E-score
AGTTTCAA,-0.0127
GTACGAGA,-0.00394
GATAATCC,-0.0134
CATATGGA,-0.139
AGCCACCC,0.031
